# Experimental data gathered from unrelated publications.
# Each numbered part is a random draw from the data of one study; scales do not carry over between parts. Positions count from the first letter of the parent shown.

# Series 1 — technique: RNA Bind-n-Seq; form: RNA; sample: in vitro; concentration: 365 nM; reference: no-protein control; reading: higher = stronger binding
# Target: RNA binding protein fox-1 homolog 2, RRM domain, GST-SBP tag (RBFOX2, Homo sapiens, UniProt O43251-10, residues 100-194)
# Setting: natural RNA segment, single round, ends assumed
# Shared flanks, not repeated: GGGAGUUCUACAGUCCGACGAUC … UGGAAUUCUCGGGUGCCAA
# Construct (chain): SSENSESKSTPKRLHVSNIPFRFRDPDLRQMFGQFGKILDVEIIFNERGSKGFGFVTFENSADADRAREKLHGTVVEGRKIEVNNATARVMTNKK
Oligonucleotide,RBNS enrichment (R)
AUGAGAAGCAACGUUAGAAGGUUUUUGUCCUUGCUACCCUUCCUGGGGCCUGUGAACUGCAGCAGCAUGUCACAUAAACUCCUGAGCAGGGGAGAUGGGAGGGCGAUGAG,0.571
UCUUACAAAACCACUUCCUCCCCACCCGCUUGCUGCCAAGGGGCGGGUUGCGGUGCAUGAAACCGCUGGGUCCUGGCUGUCACUCCUGUUGGGGGUCUGAAGGUGGCUGG,2.33
UAGCCAGGGUCUGUUCUUGUGGACCAGAGCCAGCCUAGUCAUUAUUUGCUGUCGGGUUUCCAGUUUCACCGUGUGUUAGGGUGAGGGAUGAUUGUAAAAUUUGCUCCUCA,0.198
GCCUCGCAGUGACUUCGCAGCACUGAGUGGCAUCCACCAGGAAUCAGGCUGGAGAAAUGGGAGCCCAGAGAGUGGAGAGUGAUUGGGAGUUACUUGUUCAUUCAAAUCUU,0.441
CUAUAUUGUAAGCUUUGGUGUUUGUUUAAUUAGCAAUAGGGAUGGUAGGAUUCAAAUGUGUGUCAUUUAGAAGUGGAAGCUAUUAGCACCAAUGACAUAAAUACAUACAA,1.33
UACUUAAUGAAAUGGACUUUUUGGAAAGAAAUCAGAUGAAGGCAUAAAAUUUAGUUCUUAGCUCUUGAACAGAAGCCUAAAAUUCCUGGUUCUCUCAGGGCUUCGCCUUC,0.51
AAUCAUAAGGAUUUUUAUUGCCGCUCCAUUCUUACUACUAUUCAUGAUUCAAACAUCUACCCCUGUUCUGAAUCAGGAUGUUGACACUUCUUGGUUAUUUUCAGAUGAAC,0.384
CAUGGGGUGGCCACUCCACCCGCAGCCAGACUCCCCGCUCCCCACUUUUCAUGCAGGCUGGCAUACCCCUGGCUCAGGGUCAAAUGCUGUUCCACACCCACCUCAGAGGC,0.487
UCCGUUCGGCUUUUGCUUUGCGUUAGGGUGAAGACCCUAGCGUCCAGCUCCCCUCAACGCUAUAUUUUGACACUAAAAAAGAAGGUUUCUAAAUUGUAGGAGCAGGAUGG,0.243
ACAAUCCCAGCAUUUGGGAAGCUGAGGCAAGCAGAUUACCACAAGUUUGAAACCAACCUUGGCUGCAUACAGAUGAUGUAUAUAUAGGCCAGCAUGGGUUACACUGUCUG,0.914
CAGAGAAAGGGAGGUGAGGUUUCCACCAUGUUGGCUGUUGACUCUCCCUGUAUGUUAAACCCUUGACCAGUUUACUCGUUUCUAUCCUGGAAGAUUUUUAACAAAGGGAA,0.608
GGCAUUUAUCACUGUUGGCCGGUGUGAUGAGUAUAGAGUGCCACCCAAGGCACCAGUCACACAAGCUGAUGGGCGUCUUGGCUCUGCCGUCAUGUGGAUGUUAUUGUCGC,0.391

# Series 2 — technique: protein-binding microarray; form: double-stranded DNA, one strand shown; sample: in vitro; concentration: 2200 nM top; setting: 60-bp whole probe; with: salmon DNA 0.4 mg/ml; reference: random background probes; reading: higher = stronger binding; shared flanks, not repeated: GCCTAGCAC … GTCTTGATTCGCTTGACGCTGCTG
# Target: Interferon regulatory factor 7, full length, phosphomimetic (IRF7, Homo sapiens, UniProt Q92985, residues 1-503, S471D/S472D/S475D/S476D/S477D/S483D/S484D/S487D)
# UniProt Q92985, sequence (whole entry, unmodified, looked up): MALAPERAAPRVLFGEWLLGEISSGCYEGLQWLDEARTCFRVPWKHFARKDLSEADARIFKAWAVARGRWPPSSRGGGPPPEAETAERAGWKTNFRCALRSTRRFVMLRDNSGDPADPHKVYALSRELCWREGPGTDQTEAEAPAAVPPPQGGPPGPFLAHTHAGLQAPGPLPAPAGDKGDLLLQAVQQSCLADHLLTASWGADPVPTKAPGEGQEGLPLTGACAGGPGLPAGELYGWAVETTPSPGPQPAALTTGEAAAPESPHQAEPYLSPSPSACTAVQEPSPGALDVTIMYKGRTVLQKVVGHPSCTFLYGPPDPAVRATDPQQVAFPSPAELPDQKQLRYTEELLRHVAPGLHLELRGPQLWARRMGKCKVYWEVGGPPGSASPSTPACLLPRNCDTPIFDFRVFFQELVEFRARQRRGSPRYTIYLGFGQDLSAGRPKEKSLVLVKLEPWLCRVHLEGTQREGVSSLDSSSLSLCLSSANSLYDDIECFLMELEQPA
Oligonucleotide,fitted relative affinity
GACGGTTTCCTTTCCCTGTCGTGCTAG,5.36 z-score
GCCTTGTTCGTCGCTCCGCTGTGCTAG,1.31 z-score
TTAGATATCGGTATCGGTTAGTGCTAG,0.728 z-score
TACTTTCTACTTCTCTTTTTGTGCTAG,8.71 z-score
GATGGTATCCTACTGCTGACGTGCTAG,0.542 z-score
TTAGAACTGAGGTTTCGATTAGTGCTA,2.56 z-score
TTAGCTCTCGGACTGGGTTAGTGCTAG,-0.106 z-score
TTAGGACGGCTTATCCTTTAGTGCTAG,-0.128 z-score
GACGGTATCCTACTGCGGACGTGCTAG,0.264 z-score
TCATTTTACATTATTACACTGTGCTAG,2.39 z-score
TTAAGTTTCGGTATCGGTTAGTGCTAG,9.08 z-score
TCAACTTTCTATCTCTGACTGTGCTAG,4.36 z-score
GACGGTTTCGACTATCGGGAAGTGCTA,3.17 z-score
TTAGGTCTCGGTTACGGTTAGTGCTAG,0.937 z-score
TTAGGACTGGGGTATCGGTTTGTGCTA,0.28 z-score
TTCGGTATCCTTATCCTTTAGTGCTAG,1.97 z-score
GTCGGTCTCGGACTGGGGACGTGCTAG,-0.133 z-score
CGCCCACTCATGCCTCTTAAGGTGCTA,0.658 z-score
GACGGTTTACTTCTCCTGACGTGCTAG,1.92 z-score
TCCTATGTCATTTACATTTTGTGCTAG,1.99 z-score
TTCTCAACCAGTTTTCTTTTCGTGCTA,3.2 z-score
GACGGTATCCTTTACCTGACGTGCTAG,0.661 z-score
TTAGAGATCGGGTTTCGATTAGTGCTA,2.11 z-score
TTATATATCAGTATCGATTAGTGCTAG,0.72 z-score
GACGGTTCCGGGTATCGGGACGTGCTA,0.938 z-score

# Series 3 — target: CCNA2, cyclin fold, Cln2 fusion (human); technique: yeast growth competition, sequencing; sample: yeast; setting: strong parent motif; reference: not given; reading: higher = stronger binding
# Starting sequence: CDKN1B docking peptide (human); PSACRNLFGPVDH; partner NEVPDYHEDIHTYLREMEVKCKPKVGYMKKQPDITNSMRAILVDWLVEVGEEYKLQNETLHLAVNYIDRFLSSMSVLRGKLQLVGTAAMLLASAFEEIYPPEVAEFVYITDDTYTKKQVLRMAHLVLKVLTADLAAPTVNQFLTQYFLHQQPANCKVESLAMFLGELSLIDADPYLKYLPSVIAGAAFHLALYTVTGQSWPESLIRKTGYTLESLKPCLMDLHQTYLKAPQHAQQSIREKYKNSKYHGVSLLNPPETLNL
Substitution,normalised enrichment score
PSACRNLFGPVSH [D12S],3.75
PSACRNLFGPADH [V11A],3.67
PSACRNLFGPVHH [D12H],3.75
PSACRNLFGVVDH [P10V],3.22
PSACRNLFGKVDH [P10K],3.51
PSACRLLFGPVDH [N6L],1.96
PSACRNSFGPVDH [L7S],0.378
PSACRNLFGPVDY [H13Y],3.97
PSACRNLFQPVDH [G9Q],1.48
PSACRPLFGPVDH [N6P],0.184
PSECRNLFGPVDH [A3E],0.408
PSACANLFGPVDH [R5A],-0.353
PSACRNKFGPVDH [L7K],0.759
PSICRNLFGPVDH [A3I],3.43
PSACGNLFGPVDH [R5G],-0.203
PSACRNLFGPVKH [D12K],3.81
PSACRNLFGFVDH [P10F],3.53
PRACRNLFGPVDH [S2R],4.82
PSACRNLFGWVDH [P10W],3.32
ESACRNLFGPVDH [P1E],2.17
PSADRNLFGPVDH [C4D],-0.115
PSACRNLFGPVDN [H13N],4.12
PSACRNLFGPFDH [V11F],3.7
ISACRNLFGPVDH [P1I],3.88
PSAHRNLFGPVDH [C4H],1.49

# Series 4 — technique: protein-binding microarray; form: double-stranded DNA, one strand shown; sample: in vitro; concentration: 0.8 µM; setting: whole 60-bp probe, no competitor; reading: higher = stronger binding; shared flanks, not repeated: … GTCTTGATTCGCTTGACGCTGCTG
# Target: Centromere-binding protein 1, full length, N-terminal tag (CBF1, Saccharomyces cerevisiae, UniProt P17106, residues 1-351)
# UniProt P17106, sequence (whole entry, looked up): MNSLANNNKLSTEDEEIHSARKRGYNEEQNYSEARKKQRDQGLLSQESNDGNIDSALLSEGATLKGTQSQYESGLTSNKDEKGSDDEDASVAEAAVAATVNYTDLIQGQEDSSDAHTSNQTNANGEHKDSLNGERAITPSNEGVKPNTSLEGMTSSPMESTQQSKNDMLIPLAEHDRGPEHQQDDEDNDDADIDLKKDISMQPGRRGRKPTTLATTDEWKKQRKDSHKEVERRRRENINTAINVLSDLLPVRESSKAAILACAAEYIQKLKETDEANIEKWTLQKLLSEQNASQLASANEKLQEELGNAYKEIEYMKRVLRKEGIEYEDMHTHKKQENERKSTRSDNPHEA
Oligonucleotide,fluorescence intensity
GAATAGATATATTTTCTGATGTCCTAGGAATTGTAG,503 a.u.
TGTACGAAGCTATGTCACATGACTATAGTAGTTAGG,7430 a.u.
CTATAAGAGATTAGACACGTTATCTGGAGGTAATTC,609 a.u.
CTAATCTTCATAGTGATCATGAAGTTGTGGGAATTC,529 a.u.
CTAAACTTCTAATGTCACGCAAGAAGTGAAAGTTTC,576 a.u.
GAAAAAAATGTTCAGCACGTTGATCTTGAAAGCTAG,615 a.u.
TGTACGAAGCTATGTGATATTTCTATAGTAGTTAGG,540 a.u.
GAAAGATAGAAGAATAACATCAGCAACCAAAAATAG,533 a.u.
GAAATCGTTCAACACCACCTTATTTTCTAACTATAG,543 a.u.
CTACTGTTTGTTAATCACCTCACGACTGTTGCATTC,583 a.u.
CTACTCTTAGTTTTTCATGTGGTAAAGGCAATGTTC,624 a.u.
CTAATCAGAACTAAATGCGTGATCGGAAGTAATTTC,691 a.u.
GAATGGTACAGGAATCACACCCTTGAGCTTCTTTAG,514 a.u.
GAAAAAGAATGGGATCACGATGAAGTTGTAGAGTAG,599 a.u.
GAACTGGTTTTGTGACACATGGAATAATATCATTAG,670 a.u.
CTATCACTATGCGGTGTGATGATGTGCTATACCTTC,558 a.u.
GAAAAACATCGTTAACATCACTCAACCGGGGTGTAG,530 a.u.
CTAAAGGGCATACATGACGTGGATATATGTAAATTC,491 a.u.
GAAAGGTGAGTTCATCATCAGTGATCGGACGTATAG,517 a.u.
CTAAATCACACCGACCACGCTTACATGGACTATTTC,540 a.u.
TGTACGAAGCTATATCACGAAATTATAGTAGTTAGG,546 a.u.

# Series 5 — technique: protein binding microarray; form: double-stranded DNA, one strand shown; sample: in vitro; concentration: not given; reference: not given; reading: higher = stronger binding
# Target: Histone acetyltransferase KAT6A, winged helix 2, GST fusion (KAT6A, Homo sapiens, UniProt Q92794, residues 85-181)
# Setting: 8-mer, flanks averaged, mean of 2 arrays, mostly near background
# Target sequence (chain): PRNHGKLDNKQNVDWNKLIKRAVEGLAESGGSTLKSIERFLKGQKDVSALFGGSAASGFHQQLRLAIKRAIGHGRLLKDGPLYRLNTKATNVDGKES
Oligonucleotide,E-score
CGGAGAAC,0.0246
AGGGCAGA,-0.0378
AGAGCGAT,-0.0434
AAGGGGGA,-0.0709
ACCAATCA,-0.24
CATGTTCC,-0.102
AGAAAGAG,-0.114
ATTTATAC,0.164
AGCCAGGG,0.0302
CCTGGCAA,0.0389
ACATTCGG,-0.0679
TAGAGGCA,-0.164
GGAGACTA,-0.0892
CGAGGACG,0.202
CACGTAGA,-0.296
CTCCCGCA,0.206
GTACATAA,-0.0901
CTGTCTAC,-0.0819
CGCTGCGC,0.235
ACTTAGGG,-0.0957
GGCGGAAA,0.0242
CGTGCCGC,0.0671
AGTCAGAG,0.0339
CAGAACCG,0.00867
AGTCTGAT,-0.0808
